Experimental data pooled from the literature.
Each line is one published result; not all experiments were run side by side. “And” joins repeats or separate records; there may be more than shown.

SMILES	target or system	assay	system	setting	scale	measurement	value
COc1cnc2cccc(N3CCc4c(cc(Cn5ccnc5C)cc4-c4cn(C)nc4C(F)(F)F)C3=O)c2c1	T47D	cell growth, inhibitor		120 h		EC50	3.52 µM
CN(C)CCOc1ccc(-c2nc(-c3ccncc3)c(-c3ccc4c(c3)CC/C4=N\O)[nH]2)cc1	human coronavirus OC43	virus-induced cell killing	MRC-5	screen		maximum inhibition	3.88%
C[C@]12CC[C@H](O)C[C@H]1CC[C@@H]1[C@@H]2CC[C@]2(C)[C@@H](c3ccc(=O)oc3)CC[C@]12O	T47D	luciferase		10 nM, reporter without ERE, unit not given	reference: untreated	control reporter activity	0.53 and 0.959 and 0.637
Cn1cncc1C1=CN(c2ncnc3[nH]cnc23)CCS1	T47D					CC50	> 200 µM
CCn1cc(-c2cc(Cn3ccnc3)cc3c2CCN([C@H](c2cc(OC)ccn2)C2CC2)C3=O)c(C(F)(F)F)n1	T47D	cell growth, inhibitor		120 h		EC50	> 30 µM
CC(C)C[C@@H](C(=O)N[C@H](C(=O)OC1CCCC1)c1ccccc1)[C@H](O)C(=O)NO	human coronavirus OC43	virus-induced cell killing	MRC-5	screen		maximum inhibition	54.6%
CCN(CC)c1ccc(C=NNC(=O)CSc2nc3ccccc3c(=O)n2Cc2ccc(S(N)(=O)=O)cc2)c(O)c1	T47D	NCI five-dose screen				CC50	> 100 µM
CC(C)N1CCC(NC2CCN(c3cccc(-c4cc5cc(F)ccc5[nH]4)c3)CC2)CC1	T47D					GI50	1.67 µM
COc1c(CCC[P+](c2ccccc2)(c2ccccc2)c2ccccc2)cc2c(c1OC)OCO2.[I-]	T47D	SRB				TGI	-4.45 log M
CN1CCN(C2(CNC3CCN(c4cccc(-c5cc6cc(F)ccc6[nH]5)c4)CC3)CCC2)CC1	T47D					GI50	1.94 µM
COc1cc(CCC[P+](c2ccccc2)(c2ccccc2)c2ccccc2)c(OC)c2c1OCO2.[I-]	T47D	SRB				TGI	-4.83 log M

Excerpt of the above:
SMILES	target or system	assay	system	setting	scale	measurement	value
CN(C)CCOc1ccc(-c2nc(-c3ccncc3)c(-c3ccc4c(c3)CC/C4=N\O)[nH]2)cc1	human coronavirus OC43	virus-induced cell killing	MRC-5	screen		maximum inhibition	3.88%
